Published values pooled from the literature.
A part holds a random share of what one study measured. Substitutions count along the parent as printed.

Set 1
Target: Histone acetyltransferase KAT6A, winged helix 1, GST fusion (KAT6A, Homo sapiens, UniProt Q92794, residues 1-85)
Technique: protein binding microarray
Molecule type: double-stranded DNA, one strand shown
Matrix: in vitro
Concentration: not given
Notes: 8-mer, flanks averaged, mean of 2 arrays, mostly near background
Relative to: not given
Direction: higher = stronger binding
Measurement: E-score
Residues (chain): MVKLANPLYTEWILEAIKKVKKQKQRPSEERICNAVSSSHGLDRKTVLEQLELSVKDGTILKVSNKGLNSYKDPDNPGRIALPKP
AGGCTACG: -0.0184
GGGTATCA: -0.162
ACCTATTC: 0.014
CCAGTGCG: 0.173
CCTCGAGG: -0.256
AAGTGAGG: -0.213
GCAAGCCC: 0.0186
GGGAGACA: -0.0165

Set 2
Target: TAR DNA-binding protein 43, full length, His tag (TARDBP, Homo sapiens, UniProt Q13148, residues 1-414)
Technique: RNA Bind-n-Seq
Molecule type: RNA
Matrix: in vitro
Concentration: 20 nM
Notes: 6-mer, flanks averaged, single round
With: 150 mM KCl
Relative to: input library
Direction: higher = stronger binding
Measurement: 6-mer enrichment (R)
ACUAUU: 0.597
CUAGGC: 0.823
GCACAG: 1.07
UUAGUC: 0.577
UCGUCG: 0.777
GUGGAG: 3.56
UAAAGU: 0.657
GCUAAA: 0.72

Set 3
Target: Interferon regulatory factor 5, full length, phosphomimetic (IRF5, Homo sapiens, UniProt Q13568-2, residues 1-514, S451D/S453D/S456D/S462D)
Technique: protein-binding microarray
Molecule type: double-stranded DNA, one strand shown
Matrix: in vitro
Concentration: 940 nM top
Notes: 60-bp whole probe
With: salmon DNA 0.4 mg/ml
Relative to: random background probes
Direction: higher = stronger binding
Measurement: fitted relative affinity
Shared flanks, not repeated: GCCTAGCAC … GTCTTGATTCGCTTGACGCTGCTG
GAGGGTCTCCTTCTCCTGACGTGCTAG: 0.241 z-score
ATAGGACTGCTACTGCTTTAGTGCTAG: -0.149 z-score
TTAGGTCTCGGACTGGGTAAGTGCTAG: 1.24 z-score
CTCTACTTGTGTCTAGAGATGTGCTAG: 0.0132 z-score
TTAGGTTTCGGGTATGGGTTAGTGCTA: 10.9 z-score
TCATCTTCAGGTTCTCCCACTGTGCTA: 0.75 z-score
AATATTATAACACTCTTCTTGTGCTAG: 0.772 z-score
TCATCTTTCACTGGTCCTACTGTGCTA: 1.37 z-score

Other studies, line by line
Starting sequence: viral docking peptide; KGVKRKLFAEDSS
KPVKRKLFAEDSS [G2P]  normalised enrichment score (CCNA2, cyclin fold, Cln2 fusion (human); yeast growth competition, sequencing; yeast; strong parent motif; relative to: not given, higher = stronger binding): 6.59

Some of these lines once more (set 3):
TCATCTTTCACTGGTCCTACTGTGCTA: 1.37 z-score
GAGGGTCTCCTTCTCCTGACGTGCTAG: 0.241 z-score
TCATCTTCAGGTTCTCCCACTGTGCTA: 0.75 z-score
